# Published values pooled from the literature.
# Protocols differ between the studies behind these lines.
# TMPRSS2: Transmembrane protease serine 2 (TMPRSS2, Homo sapiens, UniProt O15393)
# Chain of UniProt O15393 (whole entry, looked up): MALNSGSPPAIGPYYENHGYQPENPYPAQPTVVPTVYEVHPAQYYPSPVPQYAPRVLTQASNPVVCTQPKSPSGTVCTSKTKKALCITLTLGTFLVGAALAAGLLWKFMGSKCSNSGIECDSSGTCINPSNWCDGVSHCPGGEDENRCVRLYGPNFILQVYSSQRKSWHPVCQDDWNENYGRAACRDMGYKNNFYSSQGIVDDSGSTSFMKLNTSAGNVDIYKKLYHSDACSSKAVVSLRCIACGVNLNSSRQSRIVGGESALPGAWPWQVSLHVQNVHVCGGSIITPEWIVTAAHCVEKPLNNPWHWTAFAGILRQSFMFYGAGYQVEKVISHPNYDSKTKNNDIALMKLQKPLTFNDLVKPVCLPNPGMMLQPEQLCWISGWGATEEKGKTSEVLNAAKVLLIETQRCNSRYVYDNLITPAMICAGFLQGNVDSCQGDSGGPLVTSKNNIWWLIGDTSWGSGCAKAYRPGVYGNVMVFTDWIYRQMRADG
# PFF0160c E182D: Dihydroorotate dehydrogenase (quinone), mitochondrial (PFF0160c, Plasmodium falciparum, UniProt Q08210, E182D)
# Chain of UniProt Q92630 (whole entry, looked up): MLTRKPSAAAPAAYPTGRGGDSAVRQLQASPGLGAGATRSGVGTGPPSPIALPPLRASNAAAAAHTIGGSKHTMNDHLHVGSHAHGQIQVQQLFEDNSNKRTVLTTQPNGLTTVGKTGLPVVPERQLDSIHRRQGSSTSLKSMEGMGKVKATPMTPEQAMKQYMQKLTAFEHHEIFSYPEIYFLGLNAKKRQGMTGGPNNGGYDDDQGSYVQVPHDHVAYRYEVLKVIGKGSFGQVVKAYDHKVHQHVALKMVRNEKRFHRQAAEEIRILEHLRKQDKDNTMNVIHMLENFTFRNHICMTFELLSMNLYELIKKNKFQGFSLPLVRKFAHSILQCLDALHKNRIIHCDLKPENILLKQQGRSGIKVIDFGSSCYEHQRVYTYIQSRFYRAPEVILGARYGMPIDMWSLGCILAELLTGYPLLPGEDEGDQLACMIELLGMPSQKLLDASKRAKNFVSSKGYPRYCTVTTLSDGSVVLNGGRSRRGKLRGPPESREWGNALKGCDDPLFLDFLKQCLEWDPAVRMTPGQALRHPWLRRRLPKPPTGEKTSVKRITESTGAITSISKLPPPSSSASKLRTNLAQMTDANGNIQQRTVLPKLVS
# Chain of UniProt P45983 (whole entry, looked up): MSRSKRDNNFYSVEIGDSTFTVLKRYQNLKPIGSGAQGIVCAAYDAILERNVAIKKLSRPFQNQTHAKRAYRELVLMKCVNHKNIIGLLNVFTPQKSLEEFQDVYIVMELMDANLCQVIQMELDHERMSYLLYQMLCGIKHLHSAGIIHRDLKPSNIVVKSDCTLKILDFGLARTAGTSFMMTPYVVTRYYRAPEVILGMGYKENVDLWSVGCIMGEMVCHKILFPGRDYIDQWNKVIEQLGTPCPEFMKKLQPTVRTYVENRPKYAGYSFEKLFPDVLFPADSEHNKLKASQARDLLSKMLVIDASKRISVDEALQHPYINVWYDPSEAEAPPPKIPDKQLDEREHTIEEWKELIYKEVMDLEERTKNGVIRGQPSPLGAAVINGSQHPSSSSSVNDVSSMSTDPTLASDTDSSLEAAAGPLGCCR
# Chain of UniProt P32239 (whole entry, looked up): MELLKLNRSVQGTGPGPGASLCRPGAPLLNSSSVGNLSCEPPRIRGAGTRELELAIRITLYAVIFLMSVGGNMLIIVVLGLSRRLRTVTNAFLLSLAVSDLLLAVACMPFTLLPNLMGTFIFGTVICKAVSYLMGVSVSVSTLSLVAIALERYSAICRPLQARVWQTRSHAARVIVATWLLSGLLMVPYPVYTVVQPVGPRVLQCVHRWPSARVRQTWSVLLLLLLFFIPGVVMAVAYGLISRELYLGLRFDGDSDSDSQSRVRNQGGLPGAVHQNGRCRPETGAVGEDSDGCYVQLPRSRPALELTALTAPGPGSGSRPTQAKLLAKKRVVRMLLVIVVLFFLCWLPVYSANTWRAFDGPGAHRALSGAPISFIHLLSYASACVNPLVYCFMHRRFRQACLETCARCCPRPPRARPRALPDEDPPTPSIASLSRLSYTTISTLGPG
# Chain of UniProt Q9P2K8 (whole entry, unmodified, looked up): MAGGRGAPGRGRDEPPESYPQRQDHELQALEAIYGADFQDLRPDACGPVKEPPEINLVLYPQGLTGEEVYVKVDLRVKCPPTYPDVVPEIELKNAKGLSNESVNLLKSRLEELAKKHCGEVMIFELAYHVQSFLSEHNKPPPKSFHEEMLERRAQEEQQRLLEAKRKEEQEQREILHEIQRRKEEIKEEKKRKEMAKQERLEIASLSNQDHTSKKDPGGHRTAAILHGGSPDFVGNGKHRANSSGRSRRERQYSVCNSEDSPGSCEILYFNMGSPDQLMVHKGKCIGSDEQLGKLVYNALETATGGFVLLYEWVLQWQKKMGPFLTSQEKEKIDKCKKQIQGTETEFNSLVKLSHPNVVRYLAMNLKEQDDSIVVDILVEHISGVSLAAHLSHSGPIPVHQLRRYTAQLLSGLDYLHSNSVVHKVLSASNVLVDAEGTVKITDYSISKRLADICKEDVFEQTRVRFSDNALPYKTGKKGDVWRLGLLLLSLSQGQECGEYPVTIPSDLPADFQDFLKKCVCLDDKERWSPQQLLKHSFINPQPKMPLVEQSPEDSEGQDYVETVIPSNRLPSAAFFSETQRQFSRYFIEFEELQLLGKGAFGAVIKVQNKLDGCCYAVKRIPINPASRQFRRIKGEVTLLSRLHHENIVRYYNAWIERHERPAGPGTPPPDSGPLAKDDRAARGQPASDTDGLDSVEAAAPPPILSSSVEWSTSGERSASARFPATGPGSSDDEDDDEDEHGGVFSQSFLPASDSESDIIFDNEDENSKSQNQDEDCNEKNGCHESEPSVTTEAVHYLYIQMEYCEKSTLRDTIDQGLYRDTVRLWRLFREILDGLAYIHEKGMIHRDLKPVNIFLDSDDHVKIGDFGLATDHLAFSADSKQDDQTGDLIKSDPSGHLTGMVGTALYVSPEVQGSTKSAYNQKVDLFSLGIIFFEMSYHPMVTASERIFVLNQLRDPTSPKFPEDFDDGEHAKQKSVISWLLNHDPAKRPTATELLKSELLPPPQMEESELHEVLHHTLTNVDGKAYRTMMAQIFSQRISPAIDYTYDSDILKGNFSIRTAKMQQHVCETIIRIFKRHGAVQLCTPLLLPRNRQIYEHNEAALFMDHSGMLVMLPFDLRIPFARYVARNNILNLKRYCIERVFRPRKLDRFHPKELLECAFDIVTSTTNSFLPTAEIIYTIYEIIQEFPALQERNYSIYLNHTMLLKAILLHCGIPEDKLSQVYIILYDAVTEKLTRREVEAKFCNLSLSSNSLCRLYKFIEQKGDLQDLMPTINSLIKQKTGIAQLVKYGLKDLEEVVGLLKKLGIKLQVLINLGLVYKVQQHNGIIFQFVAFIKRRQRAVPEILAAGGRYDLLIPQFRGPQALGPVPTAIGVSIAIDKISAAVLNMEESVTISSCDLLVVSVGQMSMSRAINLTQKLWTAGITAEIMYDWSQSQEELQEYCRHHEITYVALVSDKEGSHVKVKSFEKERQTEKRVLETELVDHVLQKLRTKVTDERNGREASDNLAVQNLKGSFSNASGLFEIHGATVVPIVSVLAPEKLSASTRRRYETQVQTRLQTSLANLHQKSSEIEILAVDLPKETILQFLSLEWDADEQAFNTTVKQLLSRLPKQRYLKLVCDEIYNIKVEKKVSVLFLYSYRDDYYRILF
# Chain of UniProt P53667 (whole entry, looked up): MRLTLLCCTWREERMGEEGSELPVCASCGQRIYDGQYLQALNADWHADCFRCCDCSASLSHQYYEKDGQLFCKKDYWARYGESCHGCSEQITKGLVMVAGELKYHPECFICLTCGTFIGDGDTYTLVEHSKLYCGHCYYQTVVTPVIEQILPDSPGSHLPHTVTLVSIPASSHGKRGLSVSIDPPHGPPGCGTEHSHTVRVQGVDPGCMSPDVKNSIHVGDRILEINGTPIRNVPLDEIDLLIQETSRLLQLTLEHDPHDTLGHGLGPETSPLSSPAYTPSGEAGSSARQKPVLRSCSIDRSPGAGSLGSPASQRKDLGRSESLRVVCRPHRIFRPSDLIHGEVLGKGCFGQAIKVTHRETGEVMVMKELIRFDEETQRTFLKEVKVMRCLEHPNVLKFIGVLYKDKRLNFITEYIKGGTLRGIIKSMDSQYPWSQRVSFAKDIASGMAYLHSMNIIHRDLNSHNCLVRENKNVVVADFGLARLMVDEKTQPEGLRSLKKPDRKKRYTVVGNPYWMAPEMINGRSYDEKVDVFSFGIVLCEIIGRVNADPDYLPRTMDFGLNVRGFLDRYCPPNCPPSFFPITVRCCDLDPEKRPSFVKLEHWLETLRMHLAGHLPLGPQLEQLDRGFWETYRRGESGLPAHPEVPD
SMILES,target,test,conditions,quantity,value
CC(=O)N[C@@H](CCC(=O)O)C(=O)N[C@@H](Cc1ccccc1)C(=O)N[C@H](CCCNC(=N)N)C(=O)c1nc2ccccc2s1,TMPRSS2,"enzyme activity, inhibitor",1 nM,activity vs control,32%
Oc1c(C(Nc2ccccn2)c2ccco2)cc(Cl)c2cccnc12 (centres unmarked),PFF0160c E182D,"enzyme activity, inhibitor, absorbance",,IC50,> 10 µM
COc1ncccc1-c1cnn2ccc(N3CCN(C(=O)OC(C)C)CC3)nc12,"DYRK2 (Homo sapiens, UniProt Q92630)","binding, competition with immobilised ligand",1 µM,remaining binding,63%
[2H]c1c([2H])c([C@]2([2H])CCCN2C(=O)C(C)(C)Oc2ccc3cn[nH]c3c2)c([2H])c([2H])c1C([2H])([2H])[2H],"LIM domain kinase 1 (LIMK1, Homo sapiens, UniProt P53667)","binding, competition with immobilised ligand",1 µM,remaining binding,93%
C#Cc1n[nH]c2c(-c3cn([C@@H](C)c4ccccn4)c(=O)[nH]c3=O)cc(F)cc12,"MAPK8 (Homo sapiens, UniProt P45983)","enzyme activity, inhibitor",0.1 µM,inhibition,8.2%
N=C(N)NCCCCC(=O)N[C@@H](CCC(N)=O)C(=O)N[C@@H](CC1CC1)C(=O)N[C@@H](CCCNC(=N)N)C(=O)c1nc2ccccc2s1,TMPRSS2,"enzyme activity, inhibitor",1 nM,activity vs control,31%
Cc1nn(C)cc1-c1nc2c(N3CCN(Cc4ccc(Cl)cc4)CC3)c(Cl)cnc2[nH]1,"eIF-2-alpha kinase GCN2, C-terminal kinase domain (EIF2AK4, Homo sapiens, UniProt Q9P2K8, S808G)","binding, competition with immobilised ligand",1 µM,remaining binding,100%
C[C@H](NC(=O)[C@H](CCC(N)=O)NC(=O)[C@@H](N)CCCNC(=N)N)C(=O)N(CCCNC(=N)N)CC(=O)c1nc2ccccc2s1,TMPRSS2,"enzyme activity, inhibitor",1 nM,activity vs control,85%
Nc1ncc(-c2nc(N3CCOCC3)nc(N3CCOCC3)n2)c(C(F)F)n1,"Tyrosine-protein kinase ABL1, non-phosphorylated (ABL1, Homo sapiens, UniProt P00519, H396P)","binding, competition with immobilised ligand",10 µM,remaining binding,60%
O=C1C(c2ccccc2)=C(Nc2ccc([N+](=O)[O-])cc2)c2ccccc21,PFF0160c E182D,"enzyme activity, inhibitor, absorbance",,IC50,> 10 µM
CC(C)CC(=O)OC[C@H]1O[C@@](C#N)(c2ccc3c(N)ncnn23)[C@H](O)[C@@H]1O,"CCKBR (Homo sapiens, UniProt P32239)",cell-free assay,20 µM,inhibition,10%

# Some of these lines once more:
SMILES,target,test,conditions,quantity,value
CC(C)CC(=O)OC[C@H]1O[C@@](C#N)(c2ccc3c(N)ncnn23)[C@H](O)[C@@H]1O,"CCKBR (Homo sapiens, UniProt P32239)",cell-free assay,20 µM,inhibition,10%
[2H]c1c([2H])c([C@]2([2H])CCCN2C(=O)C(C)(C)Oc2ccc3cn[nH]c3c2)c([2H])c([2H])c1C([2H])([2H])[2H],"LIM domain kinase 1 (LIMK1, Homo sapiens, UniProt P53667)","binding, competition with immobilised ligand",1 µM,remaining binding,93%
